Experimental data pooled from the literature.
Compare with care: the assays were run in different laboratories.
Cell line: SK-MEL-5

SMILES	test	setting	how to read	endpoint	result
O=C(Nc1nnc2n3c(=S)[nH][nH]c3nc(-c3ccc(Cl)cc3)c1-2)c1ccccc1	SRB	10 µM, NCI60 single-dose screen	relative to: untreated	cell growth	97.3%
O=C(/C=C/C=C/C=C/C1CCCCC1)NC1=C[C@@](O)(/C=C/C=C/C=C/C(=O)NC2=C(O)CCC2=O)[C@@H]2O[C@@H]2C1=O	cell growth, CellTiter-Glo	78 h	–	GI50	20.5 µM
CCCN1CCN(c2ccc3[nH]c(-c4ccc5[nH]c(-c6cc(OC)c(OC)c(OC)c6)nc5c4)nc3c2)CC1	SRB	10 µM, 48 h	–	growth percent	41.3%
Cc1cc(-c2ccccc2)n(-c2nc(-c3ccc(Cl)cc3)c3c(NC(=O)c4ccccc4)nnc-3[nH]2)n1	SRB	10 µM, NCI60 single-dose screen	relative to: untreated	cell growth	78.5%
COc1ccc(OC)c(-c2nc3ccc(-c4nc5ccc(N6CCN(C)CC6)cc5[nH]4)cc3[nH]2)c1	SRB	10 µM, 48 h	–	growth percent	84.3%
CSc1nc(-c2ccc(Cl)cc2)c2c(NC(=O)c3ccccc3)nnc-2[nH]1	SRB	10 µM, NCI60 single-dose screen	relative to: untreated	cell growth	98.9%
C#C[C@@]1(O)[C@@H](CO)O[C@@H](n2ccc3c(N)ncnc32)[C@@H]1O	SRB	NCI-60 screen	–	TGI	2.96 µM
NNc1nc(-c2ccc(Cl)cc2)c2c(NC(=O)c3ccccc3)nnc-2[nH]1	SRB	10 µM, NCI60 single-dose screen	relative to: untreated	cell growth	101%
O=c1ccn(Cc2cn(-c3c4ccccc4nc4ccccc34)nn2)c(=O)[nH]1	NCI60 single-dose screen	10 µM	–	growth percentage	91.3%
Cc1n[nH]c2nc(-c3ccc(Cl)cc3)c3c(NC(=O)c4ccccc4)nnc-3n12	SRB	10 µM, NCI60 single-dose screen	relative to: untreated	cell growth	100%
O=c1ccn(Cc2cn(-c3cc4ccccc4oc3=O)nn2)c(=O)[nH]1	NCI60 single-dose screen	10 µM	–	growth percentage	96.8%
CCCN1CCN(c2ccc3nc(-c4ccc5nc(-c6cc(OC)ccc6OC)[nH]c5c4)[nH]c3c2)CC1	SRB	10 µM, 48 h	–	growth percent	99.5%
CC[C@H](C)[C@H](NC(=O)[C@H](CCCCN)NC(=O)[C@@H](NC(=O)[C@H](CCCNC(=N)N)NC(=O)[C@@H](NC(=O)[C@@H](CCCNC(=N)N)NC(=O)[C@@H](CCCNC(=N)N)NC(=O)[C@@H](CCCNC(=N)N)NC(=O)[C@@H](CCCNC(=N)N)NC(=O)[C@@H](CCCNC(=N)N)NC(=O)[C@H](N)CCCNC(=N)N)[C@@H](C)O)[C@@H](C)O)C(=O)N[C@@H](CC(=O)O)C(=O)N[C@@H](Cc1c[nH]c2ccccc12)C(=O)NC(C)(C)C(=O)N[C@@H](CCCCN)C(=O)N[C@H](C(=O)N[C@@H](CC(C)C)C(=O)NC(C)(C)C(=O)N[C@@H](CCCCN)C(=O)NCCCCCC(=O)NCCCC[C@H](NC(=O)CCCCCNC(=O)[C@H](CCCCN)NC(=O)C(C)(C)NC(=O)[C@H](CC(C)C)NC(=O)[C@@H](NC(=O)[C@H](CCCCN)NC(=O)C(C)(C)NC(=O)[C@H](Cc1c[nH]c2ccccc12)NC(=O)[C@H](CC(=O)O)NC(=O)[C@@H](NC(=O)[C@H](CCCCN)NC(=O)[C@@H](NC(=O)[C@H](CCCNC(=N)N)NC(=O)[C@@H](NC(=O)[C@@H](CCCNC(=N)N)NC(=O)[C@@H](CCCNC(=N)N)NC(=O)[C@@H](CCCNC(=N)N)NC(=O)[C@@H](CCCNC(=N)N)NC(=O)[C@@H](CCCNC(=N)N)NC(=O)[C@H](N)CCCNC(=N)N)[C@@H](C)O)[C@@H](C)O)[C@@H](C)CC)[C@@H](C)CC)C(N)=O)[C@@H](C)CC	annexin V flow cytometry	10 µM, 2 h	–	apoptotic cells	49%
CCCCN1CCN(c2ccc3nc(-c4ccc5nc(-c6cc(OC)ccc6OC)[nH]c5c4)[nH]c3c2)CC1	SRB	10 µM, 48 h	–	growth percent	94.7%
O=C(Nc1nnc2n3c(nc(-c4ccc(Cl)cc4)c1-2)SCC3=O)c1ccccc1	SRB	10 µM, NCI60 single-dose screen	relative to: untreated	cell growth	96.3%
CCCCN1CCN(c2ccc3[nH]c(-c4ccc5[nH]c(-c6ccc(OCC)cc6)nc5c4)nc3c2)CC1	SRB	10 µM, 48 h	–	growth percent	49.3%
Cc1cc(=O)[nH]c(=O)n1Cc1cn(-c2cc3ccccc3oc2=O)nn1	NCI60 single-dose screen	10 µM	–	growth percentage	100%
CCCN1CCN(c2ccc3[nH]c(-c4ccc5[nH]c(-c6ccc(OCC)c(OCC)c6)nc5c4)nc3c2)CC1	SRB	10 µM, 48 h	–	growth percent	-93.9%
Cn1cncc1C1=CN(c2ncnc3[nH]cnc23)CCS1	–	melanoma cell line	–	TGI	51.3 µM

Repeated from above:
SMILES	test	setting	how to read	endpoint	result
CC[C@H](C)[C@H](NC(=O)[C@H](CCCCN)NC(=O)[C@@H](NC(=O)[C@H](CCCNC(=N)N)NC(=O)[C@@H](NC(=O)[C@@H](CCCNC(=N)N)NC(=O)[C@@H](CCCNC(=N)N)NC(=O)[C@@H](CCCNC(=N)N)NC(=O)[C@@H](CCCNC(=N)N)NC(=O)[C@@H](CCCNC(=N)N)NC(=O)[C@H](N)CCCNC(=N)N)[C@@H](C)O)[C@@H](C)O)C(=O)N[C@@H](CC(=O)O)C(=O)N[C@@H](Cc1c[nH]c2ccccc12)C(=O)NC(C)(C)C(=O)N[C@@H](CCCCN)C(=O)N[C@H](C(=O)N[C@@H](CC(C)C)C(=O)NC(C)(C)C(=O)N[C@@H](CCCCN)C(=O)NCCCCCC(=O)NCCCC[C@H](NC(=O)CCCCCNC(=O)[C@H](CCCCN)NC(=O)C(C)(C)NC(=O)[C@H](CC(C)C)NC(=O)[C@@H](NC(=O)[C@H](CCCCN)NC(=O)C(C)(C)NC(=O)[C@H](Cc1c[nH]c2ccccc12)NC(=O)[C@H](CC(=O)O)NC(=O)[C@@H](NC(=O)[C@H](CCCCN)NC(=O)[C@@H](NC(=O)[C@H](CCCNC(=N)N)NC(=O)[C@@H](NC(=O)[C@@H](CCCNC(=N)N)NC(=O)[C@@H](CCCNC(=N)N)NC(=O)[C@@H](CCCNC(=N)N)NC(=O)[C@@H](CCCNC(=N)N)NC(=O)[C@@H](CCCNC(=N)N)NC(=O)[C@H](N)CCCNC(=N)N)[C@@H](C)O)[C@@H](C)O)[C@@H](C)CC)[C@@H](C)CC)C(N)=O)[C@@H](C)CC	annexin V flow cytometry	10 µM, 2 h	–	apoptotic cells	49%
CCCCN1CCN(c2ccc3nc(-c4ccc5nc(-c6cc(OC)ccc6OC)[nH]c5c4)[nH]c3c2)CC1	SRB	10 µM, 48 h	–	growth percent	94.7%
O=C(Nc1nnc2n3c(nc(-c4ccc(Cl)cc4)c1-2)SCC3=O)c1ccccc1	SRB	10 µM, NCI60 single-dose screen	relative to: untreated	cell growth	96.3%
